Results collected from several papers.
Each line is one published result; not all experiments were run side by side. Several values in a cell are separate wells, animals, samples, runs or records. ± marks the error that the study gave.
Target: Serine/threonine-protein kinase 24 (STK24, Homo sapiens, UniProt Q9Y6E0)
Chain of UniProt Q9Y6E0 (whole entry, looked up): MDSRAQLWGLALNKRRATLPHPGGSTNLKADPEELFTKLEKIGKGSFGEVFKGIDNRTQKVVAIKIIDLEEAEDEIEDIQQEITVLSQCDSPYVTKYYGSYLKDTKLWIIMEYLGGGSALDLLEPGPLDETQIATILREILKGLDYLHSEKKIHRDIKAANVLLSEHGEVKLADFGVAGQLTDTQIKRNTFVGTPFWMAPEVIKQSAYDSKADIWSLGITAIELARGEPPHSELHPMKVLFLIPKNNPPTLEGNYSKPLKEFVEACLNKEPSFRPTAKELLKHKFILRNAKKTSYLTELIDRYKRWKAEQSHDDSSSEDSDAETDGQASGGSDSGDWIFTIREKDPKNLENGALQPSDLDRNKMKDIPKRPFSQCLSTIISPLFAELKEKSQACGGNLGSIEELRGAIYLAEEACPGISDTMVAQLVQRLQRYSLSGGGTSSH

| SMILES | assay | system | conditions | scale | quantity | result |
| --- | --- | --- | --- | --- | --- | --- |
| C1=C/COCc2cc(ccc2OCCN2CCCC2)Nc2nccc(n2)-c2cccc(c2)COC/1 | – | – | concentration not given, gene name MST3 | – | percent of control | 99% |
| O=C(NC1CCC1)c1ccc2nc(-c3cccc(NS(=O)(=O)NCCN4CCCCC4)c3)cn2c1 | enzyme activity | – | 10 µM | – | remaining activity | 93% |
| CC#CC(=O)N1CCC[C@H]1c1nc(-c2ccc(C(=O)Nc3ccccn3)cc2)c2c(N)nccn12 | kinase activity, inhibitor, HotSpot radiometric | – | 100 nM, added: ATP 10 µM | – | remaining activity | 91 ± 6.3% |
| COc1cc(F)ccc1-c1ncnc(Nc2cccc(C[S@](C)(=N)=O)c2)n1 | kinase activity | – | 10 µM, added: 10 µM ATP | – | remaining activity | 89% |
| COc1ccc(F)cc1C(=O)NCc1ccc(-c2nn([C@@H](C)C(F)(F)F)c(N)c2C(N)=O)cc1 | kinase activity, inhibitor, HotSpot radiometric | – | 1000 nM, added: ATP at Km | – | remaining activity | 98.8 ± 2.9% |
| C=CC(=O)N1CCC(COCC(=O)N2CCN(c3nc(-c4cnc(N)nc4C(F)F)nc(N4CCOC[C@@H]4C)n3)CC2)CC1 | KINOMEscan | – | 1 µM | baseline: DMSO control | remaining binding | 100% |
| O=C(COP(=O)(O)O)[C@@H](O)[C@H](O)[C@H](O)COP(=O)(O)O | thermal proteome profiling | HepG2 cell lysate | concentration not given, 57 over 37 °C | baseline: compound over control | thermal stability ratio | 0.667 and 0.643 and 0.545 |
| C=CC(=O)N1CCC([C@@H]2CCNc3c(C(N)=O)c(-c4ccc(Oc5ccccc5)cc4)nn32)CC1 | kinase activity, inhibitor, HotSpot radiometric | – | 100 nM, added: ATP 10 µM | – | remaining activity | 66.1 ± 0.5% |
| C[C@@H](c1ccc(-n2cnc3c(N)ncnc32)cc1)N1CCc2nn(C)c(Cc3ccccc3)c2C1=O | KINOMEscan | – | 0.1 µM | baseline: DMSO control | remaining binding | 100% |
| C=CC(=O)N1CCC(C(=O)NCC(=O)N2CCN(c3nc(-c4cnc(N)nc4C(F)F)nc(N4CCOCC4)n3)CC2)CC1 | KINOMEscan | – | 1 µM | – | remaining binding | 98% |
| CCCOc1ccc(OC)c(F)c1C(=O)c1ccc(C(=O)N[C@@H]2CNC[C@H]2NC(=O)c2ccc3[nH]ncc3c2)cc1 | enzyme activity | – | 10 µM | – | remaining activity | 66% |
| CC[C@@H]1[C@H](F)C(=O)N[C@@H]1COc1nccc2cc(C(N)=O)c(OC)cc12 | ATP-site probe binding, ActivX profiling, refers to: MST3 | THP-1 cell lysate | 0.04 mM, Lys1 site | – | inhibition | -19.7% |
| CNc1ncc2c(/C=C/C(=O)N3CCC(OC)CC3)nn(Cc3cccc(C(F)(F)F)c3)c2n1 | kinase activity, inhibitor | – | 1 µM | baseline: untreated control | remaining activity | 106% |
| CCN(CC)c1ccc(C2=NNC(=O)CC2C)cc1[N+](=O)[O-] (centres unmarked) | enzyme activity, inhibitor | – | 10 µM | – | remaining activity | 0% |

Excerpt of the above:
| SMILES | assay | system | conditions | scale | quantity | result |
| --- | --- | --- | --- | --- | --- | --- |
| O=C(COP(=O)(O)O)[C@@H](O)[C@H](O)[C@H](O)COP(=O)(O)O | thermal proteome profiling | HepG2 cell lysate | concentration not given, 57 over 37 °C | baseline: compound over control | thermal stability ratio | 0.667 and 0.643 and 0.545 |
